Results pooled from the literature.
Each line is one published result; not all experiments were run side by side.

SMILES	organism	assay	system	setting	MIC
CC[C@H](C)[C@H](NC(=O)[C@H](C)NC(=O)CNC(=O)[C@H](C)NC(=O)[C@H](CCCCN)NC(=O)[C@H](CO)NC(=O)[C@H](C)NC(=O)[C@H](CCSC)NC(=O)CN)C(=O)N[C@@H](C)C(=O)NCC(=O)N[C@@H](CCCCN)C(=O)N[C@H](C(=O)N[C@@H](C)C(=O)N[C@@H](CCCCN)C(=O)N[C@H](C(=O)N[C@@H](C)C(=O)N[C@@H](CC(C)C)C(=O)N[C@@H](CCCCN)C(=O)N[C@@H](C)C(=O)N[C@@H](CC(C)C)C(N)=O)C(C)C)[C@@H](C)CC	Escherichia coli	–	CFT073 wild type	18 h, 37 °C, minimal salts medium	2.5 µg/mL
CN[C@H](CC(C)C)C(=O)N[C@H]1C(=O)N[C@@H](CC(N)=O)C(=O)N[C@H]2C(=O)N[C@H]3C(=O)N[C@H](C(=O)N[C@H](C(=O)O)c4cc(O)cc(O)c4-c4cc3ccc4O)[C@H](O)c3ccc(c(Cl)c3)Oc3cc2cc(c3O[C@@H]2O[C@H](CO)[C@@H](O)[C@H](O)[C@H]2O[C@H]2C[C@](C)(NCc3ccc(OCc4cn(CC(=O)N[C@H](C(=O)N[C@@H](CCN)C(=O)N[C@H]5CCNC(=O)[C@H]([C@@H](C)O)NC(=O)[C@H](CCN)NC(=O)[C@H](CCN)NC(=O)[C@H](CC(C)C)NC(=O)[C@@H](CC(C)C)NC(=O)[C@H](CCN)NC5=O)[C@@H](C)O)nn4)c(OC)c3)[C@H](O)[C@H](C)O2)Oc2ccc(cc2Cl)[C@H]1O	Enterococcus faecium	–	VRE vanB	–	0.76 µM
CC(=O)N[C@@H](CC(C)C)C(=O)N[C@H]1CSSC[C@@H](C(=O)N2CCC[C@H]2C(N)=O)NC(=O)[C@H]([C@@H](C)O)NC(=O)[C@H](C(C)C)NC(=O)[C@H]([C@@H](C)O)NC(=O)CNC(=O)[C@H](CCCCN)NC(=O)[C@H](Cc2ccccc2)NC(=O)[C@H](Cc2ccc(O)cc2)NC(=O)[C@H](CCCCN)NC(=O)[C@H](CCC(=O)O)NC(=O)[C@H](Cc2ccccc2)NC(=O)[C@H](CCCNC(=N)N)NC(=O)[C@H](CCCCN)NC(=O)[C@H](CC(C)C)NC(=O)[C@H](CC(=O)O)NC(=O)[C@@H]2CCCN2C(=O)[C@H](CCCCN)NC(=O)[C@H](C(C)C)NC(=O)[C@H](CCCCN)NC(=O)[C@H](CCCCN)NC(=O)[C@H]([C@@H](C)O)NC1=O	Pseudomonas fluorescens	broth dilution	CGMCC strain	24 h	> 40 µM
CC[C@H](C)[C@@H]1NC(=O)[C@@H]([C@@H](C)O)NC(=O)CNC(=O)[C@H](CC(=O)O)NC(=O)CNC(=O)[C@H](CC(=O)O)NC(=O)CNC(=O)[C@H]2CCCCN2C(=O)[C@@H](NC(=O)[C@H](CC(=O)O)NC(=O)/C=C/CCCCCCCCCC(C)C)CNC(=O)[C@@H]2CCCN2C1=O	Enterococcus faecium	broth microdilution	daptomycin-resistant isolate, Mueller-Hinton broth, Mg2+ 10 mg/L	16 h, added: Ca2+ 0 mM	> 128 µg/mL
CC[C@H](C)[C@H](NC(=O)[C@H](CCCNC(=N)N)NC(=O)[C@H](CO)NC(=O)[C@H](Cc1ccc(O)cc1)NC(=O)[C@@H](NC(=O)[C@@H](NC(=O)[C@H](C)NC(=O)CNC(=O)[C@H](CCCCN)NC(=O)[C@H](CCCCN)NC(=O)CCNC(=O)CCCCCNC(=O)[C@H](CCCNC(=N)N)NC(=O)CCCCCNC(=O)[C@H](CCCNC(=N)N)NC(=O)[C@H](CCCNC(=N)N)NC(=O)CCCCCNC(=O)[C@H](CCCNC(=N)N)NC(=O)[C@H](CCCNC(=N)N)NC(=O)CCCCCNC(=O)[C@H](CCCNC(=N)N)NC(=O)[C@H](CCCNC(=N)N)NC(=O)CCCCCNC(=O)[C@@H](N)CCCNC(=N)N)C(C)C)[C@@H](C)O)C(=O)N[C@@H](CO)C(=O)NCC(=O)N[C@@H](CCC(N)=O)C(=O)N[C@@H](Cc1ccc(O)cc1)C(=O)N[C@@H](CCCCN)C(=O)O	Escherichia coli	broth microdilution	BAA 41, resistant, Mueller-Hinton broth	–	12 µM
O=[N+]([O-])c1ccc(C2=[N+]([O-])c3ccccc3N3CCCN=C23)cc1	Prevotella spp.	–	–	–	0.06 to 0.125 µg/mL
O=C(c1ccccc1O)c1[nH]c(Cl)c(Cl)c1-n1c(C(=O)c2ccccc2O)cc(Cl)c1Cl	Shigella sonnei	microbial growth	ATCC25931	–	> 64 µM
N=C(N)NCCC[C@H](NC(=O)[C@H](CCCNC(=N)N)NC(=O)[C@H](Cc1ccccc1)NC(=O)[C@H](CO)NC(=O)[C@H](Cc1ccccc1)NC(=O)[C@H](Cc1c[nH]c2ccccc12)NC(=O)[C@H](Cc1ccccc1)NC(=O)[C@H](CO)NC(=O)[C@H](Cc1ccccc1)NC(=O)[C@H](CCCNC(=N)N)NC(=O)[C@@H](N)CCCNC(=N)N)C(N)=O	Lactiplantibacillus plantarum	–	7469, probiotic strain	24 h, 37 °C, tested up to 128 µM	128 µM
CC(C)Oc1ccc(B(O)O)c(F)n1	Enterobacter cloacae	bacterial growth	AmpC overproducer clinical isolate	without cefotaxime	1020 µg/mL
[O-][N+]1=C(c2ccc(Cl)cc2)C2=NCCCCN2c2ccccc21	Prevotella spp.	–	–	–	0.125 to 0.5 µg/mL
CC(=O)N[C@@H](CC(C)C)C(=O)N[C@H]1CSSC[C@@H](C(=O)N2CCC[C@H]2C(N)=O)NC(=O)[C@H]([C@@H](C)O)NC(=O)[C@H](C(C)C)NC(=O)[C@H]([C@@H](C)O)NC(=O)CNC(=O)[C@H](CC(C)C)NC(=O)[C@H](Cc2ccccc2)NC(=O)[C@H](Cc2ccc(O)cc2)NC(=O)[C@H](CC(C)C)NC(=O)[C@H](CCCCN)NC(=O)[C@H](Cc2ccccc2)NC(=O)[C@H](CCCNC(=N)N)NC(=O)[C@H](CCC(N)=O)NC(=O)[C@H](CC(C)C)NC(=O)[C@H](CCCCN)NC(=O)[C@@H]2CCCN2C(=O)[C@H](CCCCN)NC(=O)[C@H](C(C)C)NC(=O)[C@H](CC(N)=O)NC(=O)[C@H](Cc2ccc(O)cc2)NC(=O)[C@H]([C@@H](C)O)NC1=O	Pseudomonas fluorescens	broth dilution	CGMCC strain	24 h	5 to 10 µM
CC1(C)S[C@@H]2[C@H](NC(=O)[C@H](NC(=O)C3=C(O)C(c4ccccc4F)NC3=O)c3ccccc3)C(=O)N2[C@H]1C(=O)O (stereo partly drawn)	Escherichia coli	broth microdilution	JW0790-2 fiu deletion mutant	ferric iron uptake gene	50 µg/mL
CC[C@H](C)[C@@H]1NC(=O)[C@H](CC(C)C)NC(=O)[C@@H](NC(=O)[C@H](CCCNC(=N)N)NC(=O)[C@@H](NC(=O)CNC(=O)[C@@H]2CCCN2C(=O)[C@@H]2CCC(=O)NCC(=O)N[C@@H](CO)C(=O)N[C@@H](CCCNC(=N)N)C(=O)NCC(=O)N[C@@H](Cc3c[nH]c4ccccc34)C(=O)NCC(=O)N[C@@H](Cc3ccccc3)C(=O)N2)C(C)C)CSSC[C@@H](C(=O)N[C@@H](CC(=O)O)C(=O)O)NC(=O)[C@H](Cc2c[nH]c3ccccc23)NC1=O	Streptococcus pyogenes	broth microdilution	sensitive clinical isolate	overnight, 37 °C	> 128 µg/mL
CCCCCCCCCCCCCC(=O)N[C@H]1C(=O)N[C@@H](CN)C(=O)N[C@@H](CO)C(=O)N[C@@H](Cc2ccc(O)cc2)C(=O)O[C@H]1C	Staphylococcus aureus	–	SH1000	added: phosphatidylcholine, molar ratio 0.5	2 µg/mL
CC(C)CCCCCCCCC/C=C/C(=O)N[C@@H](CC(=O)O)C(=O)N[C@H]1CNC(=O)[C@@H]2CCCN2C(=O)[C@H](C(C)C)NC(=O)[C@@H](CN)NC(=O)CNC(=O)[C@H](CC(=O)O)NC(=O)CNC(=O)[C@H](CC(=O)O)NC(=O)[C@H](CC(=O)O)NC(=O)[C@H]2CCCCN2C1=O	Staphylococcus aureus	broth microdilution	MRSA USA300, Mueller-Hinton broth, Mg2+ 10 mg/L	16 h, 37 °C, added: Ca2+ 5 mM	2 µg/mL

Some of these lines once more:
SMILES	organism	assay	system	setting	MIC
CC(=O)N[C@@H](CC(C)C)C(=O)N[C@H]1CSSC[C@@H](C(=O)N2CCC[C@H]2C(N)=O)NC(=O)[C@H]([C@@H](C)O)NC(=O)[C@H](C(C)C)NC(=O)[C@H]([C@@H](C)O)NC(=O)CNC(=O)[C@H](CCCCN)NC(=O)[C@H](Cc2ccccc2)NC(=O)[C@H](Cc2ccc(O)cc2)NC(=O)[C@H](CCCCN)NC(=O)[C@H](CCC(=O)O)NC(=O)[C@H](Cc2ccccc2)NC(=O)[C@H](CCCNC(=N)N)NC(=O)[C@H](CCCCN)NC(=O)[C@H](CC(C)C)NC(=O)[C@H](CC(=O)O)NC(=O)[C@@H]2CCCN2C(=O)[C@H](CCCCN)NC(=O)[C@H](C(C)C)NC(=O)[C@H](CCCCN)NC(=O)[C@H](CCCCN)NC(=O)[C@H]([C@@H](C)O)NC1=O	Pseudomonas fluorescens	broth dilution	CGMCC strain	24 h	> 40 µM
CC[C@H](C)[C@@H]1NC(=O)[C@@H]([C@@H](C)O)NC(=O)CNC(=O)[C@H](CC(=O)O)NC(=O)CNC(=O)[C@H](CC(=O)O)NC(=O)CNC(=O)[C@H]2CCCCN2C(=O)[C@@H](NC(=O)[C@H](CC(=O)O)NC(=O)/C=C/CCCCCCCCCC(C)C)CNC(=O)[C@@H]2CCCN2C1=O	Enterococcus faecium	broth microdilution	daptomycin-resistant isolate, Mueller-Hinton broth, Mg2+ 10 mg/L	16 h, added: Ca2+ 0 mM	> 128 µg/mL
